Results from different studies.
Numbered parts are unrelated; each lists some results of a single study.
Chain of UniProt Q09013 (whole entry, looked up): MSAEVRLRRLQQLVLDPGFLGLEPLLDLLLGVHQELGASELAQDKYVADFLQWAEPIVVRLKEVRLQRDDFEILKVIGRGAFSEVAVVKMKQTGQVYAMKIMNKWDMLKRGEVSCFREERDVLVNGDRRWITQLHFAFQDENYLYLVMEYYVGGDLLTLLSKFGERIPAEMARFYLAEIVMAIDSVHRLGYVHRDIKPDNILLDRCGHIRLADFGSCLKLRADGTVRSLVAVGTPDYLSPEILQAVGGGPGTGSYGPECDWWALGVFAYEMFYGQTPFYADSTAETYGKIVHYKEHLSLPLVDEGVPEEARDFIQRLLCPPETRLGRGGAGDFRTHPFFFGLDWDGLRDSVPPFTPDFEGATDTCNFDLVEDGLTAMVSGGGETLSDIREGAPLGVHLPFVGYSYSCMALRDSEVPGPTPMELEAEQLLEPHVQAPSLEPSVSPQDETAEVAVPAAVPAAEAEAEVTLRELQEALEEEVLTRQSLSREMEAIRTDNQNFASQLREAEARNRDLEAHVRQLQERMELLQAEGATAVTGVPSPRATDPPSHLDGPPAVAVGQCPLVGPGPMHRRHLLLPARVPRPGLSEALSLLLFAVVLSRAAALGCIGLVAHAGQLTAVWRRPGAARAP
Chain of UniProt O96013 (whole entry, looked up): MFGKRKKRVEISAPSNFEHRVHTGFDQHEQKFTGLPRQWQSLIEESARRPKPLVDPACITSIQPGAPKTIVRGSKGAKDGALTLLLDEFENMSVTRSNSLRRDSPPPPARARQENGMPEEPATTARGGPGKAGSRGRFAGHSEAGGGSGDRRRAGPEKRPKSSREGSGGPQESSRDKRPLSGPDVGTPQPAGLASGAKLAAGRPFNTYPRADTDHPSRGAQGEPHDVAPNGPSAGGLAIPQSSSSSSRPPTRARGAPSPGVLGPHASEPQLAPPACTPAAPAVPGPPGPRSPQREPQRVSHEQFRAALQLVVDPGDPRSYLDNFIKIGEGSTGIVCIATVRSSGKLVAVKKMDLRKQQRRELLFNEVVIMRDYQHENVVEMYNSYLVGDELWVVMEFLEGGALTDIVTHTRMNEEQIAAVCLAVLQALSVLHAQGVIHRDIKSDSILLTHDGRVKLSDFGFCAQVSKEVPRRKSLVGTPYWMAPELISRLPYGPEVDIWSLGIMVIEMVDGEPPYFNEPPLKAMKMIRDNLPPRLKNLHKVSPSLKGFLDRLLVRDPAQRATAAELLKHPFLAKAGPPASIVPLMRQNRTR
Chain of UniProt Q8IW41 (whole entry, looked up): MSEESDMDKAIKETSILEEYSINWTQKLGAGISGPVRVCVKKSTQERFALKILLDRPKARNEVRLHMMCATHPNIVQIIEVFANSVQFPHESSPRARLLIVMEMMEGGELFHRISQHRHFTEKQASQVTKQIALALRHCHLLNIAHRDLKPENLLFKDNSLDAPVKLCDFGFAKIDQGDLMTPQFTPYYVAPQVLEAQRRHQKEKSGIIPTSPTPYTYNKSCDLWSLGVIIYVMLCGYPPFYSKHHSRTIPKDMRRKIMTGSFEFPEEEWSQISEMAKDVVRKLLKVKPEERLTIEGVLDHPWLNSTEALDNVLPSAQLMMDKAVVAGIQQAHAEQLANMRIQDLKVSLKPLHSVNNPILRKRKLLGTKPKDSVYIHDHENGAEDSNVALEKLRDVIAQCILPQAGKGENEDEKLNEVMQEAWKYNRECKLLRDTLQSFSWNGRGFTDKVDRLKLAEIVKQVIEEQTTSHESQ
Chain of UniProt Q14012 (whole entry, looked up): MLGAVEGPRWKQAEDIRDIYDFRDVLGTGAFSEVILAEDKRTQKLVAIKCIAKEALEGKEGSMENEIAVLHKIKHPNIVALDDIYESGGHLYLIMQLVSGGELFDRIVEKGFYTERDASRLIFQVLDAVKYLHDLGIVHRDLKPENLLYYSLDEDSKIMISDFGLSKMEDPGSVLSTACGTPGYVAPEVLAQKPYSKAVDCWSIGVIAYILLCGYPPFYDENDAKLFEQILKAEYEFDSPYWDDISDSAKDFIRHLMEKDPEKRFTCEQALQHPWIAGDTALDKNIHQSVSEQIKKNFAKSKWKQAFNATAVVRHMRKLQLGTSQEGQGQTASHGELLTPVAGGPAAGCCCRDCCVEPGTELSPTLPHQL
Chain of UniProt Q14680 (whole entry, looked up): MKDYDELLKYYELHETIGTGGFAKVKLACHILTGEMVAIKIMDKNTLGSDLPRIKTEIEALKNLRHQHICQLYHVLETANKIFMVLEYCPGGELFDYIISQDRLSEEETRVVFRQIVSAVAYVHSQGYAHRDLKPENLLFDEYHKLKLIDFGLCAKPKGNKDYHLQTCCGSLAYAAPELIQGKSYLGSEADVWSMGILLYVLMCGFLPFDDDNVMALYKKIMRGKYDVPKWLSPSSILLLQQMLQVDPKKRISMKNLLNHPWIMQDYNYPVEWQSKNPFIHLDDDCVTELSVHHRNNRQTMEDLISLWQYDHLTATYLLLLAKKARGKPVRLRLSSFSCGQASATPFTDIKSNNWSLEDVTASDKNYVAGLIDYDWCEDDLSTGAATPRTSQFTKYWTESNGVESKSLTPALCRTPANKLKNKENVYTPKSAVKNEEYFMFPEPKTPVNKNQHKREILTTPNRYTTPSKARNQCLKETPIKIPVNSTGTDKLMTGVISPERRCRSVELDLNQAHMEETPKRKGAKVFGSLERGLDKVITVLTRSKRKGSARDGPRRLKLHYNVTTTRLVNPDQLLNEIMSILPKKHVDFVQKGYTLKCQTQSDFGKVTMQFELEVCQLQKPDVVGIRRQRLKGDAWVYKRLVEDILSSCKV
Chain of UniProt Q9H0K1 (whole entry, looked up): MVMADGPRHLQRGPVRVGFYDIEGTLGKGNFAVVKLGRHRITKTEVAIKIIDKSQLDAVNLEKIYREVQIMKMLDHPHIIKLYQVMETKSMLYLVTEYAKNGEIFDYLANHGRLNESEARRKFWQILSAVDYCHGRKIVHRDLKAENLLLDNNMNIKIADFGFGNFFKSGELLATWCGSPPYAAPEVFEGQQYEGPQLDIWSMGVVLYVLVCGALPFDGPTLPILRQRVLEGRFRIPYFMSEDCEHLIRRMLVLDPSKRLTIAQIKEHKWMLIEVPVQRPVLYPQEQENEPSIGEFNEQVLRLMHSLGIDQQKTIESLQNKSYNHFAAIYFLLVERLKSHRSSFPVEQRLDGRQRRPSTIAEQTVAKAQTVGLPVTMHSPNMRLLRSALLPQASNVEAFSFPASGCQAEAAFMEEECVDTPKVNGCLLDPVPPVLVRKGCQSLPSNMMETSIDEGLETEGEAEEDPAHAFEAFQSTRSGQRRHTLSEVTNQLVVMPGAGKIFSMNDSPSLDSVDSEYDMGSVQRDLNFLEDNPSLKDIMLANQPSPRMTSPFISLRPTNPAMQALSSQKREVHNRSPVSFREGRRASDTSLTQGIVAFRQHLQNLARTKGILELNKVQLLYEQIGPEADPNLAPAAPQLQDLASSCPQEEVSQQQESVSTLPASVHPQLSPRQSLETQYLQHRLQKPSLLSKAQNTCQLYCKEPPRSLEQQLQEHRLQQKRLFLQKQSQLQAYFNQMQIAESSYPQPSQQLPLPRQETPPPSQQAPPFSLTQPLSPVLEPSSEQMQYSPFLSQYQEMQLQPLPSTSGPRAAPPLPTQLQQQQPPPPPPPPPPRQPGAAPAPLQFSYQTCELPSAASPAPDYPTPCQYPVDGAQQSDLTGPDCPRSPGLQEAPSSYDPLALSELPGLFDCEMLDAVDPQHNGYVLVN
Chain of UniProt P19525 (whole entry, looked up): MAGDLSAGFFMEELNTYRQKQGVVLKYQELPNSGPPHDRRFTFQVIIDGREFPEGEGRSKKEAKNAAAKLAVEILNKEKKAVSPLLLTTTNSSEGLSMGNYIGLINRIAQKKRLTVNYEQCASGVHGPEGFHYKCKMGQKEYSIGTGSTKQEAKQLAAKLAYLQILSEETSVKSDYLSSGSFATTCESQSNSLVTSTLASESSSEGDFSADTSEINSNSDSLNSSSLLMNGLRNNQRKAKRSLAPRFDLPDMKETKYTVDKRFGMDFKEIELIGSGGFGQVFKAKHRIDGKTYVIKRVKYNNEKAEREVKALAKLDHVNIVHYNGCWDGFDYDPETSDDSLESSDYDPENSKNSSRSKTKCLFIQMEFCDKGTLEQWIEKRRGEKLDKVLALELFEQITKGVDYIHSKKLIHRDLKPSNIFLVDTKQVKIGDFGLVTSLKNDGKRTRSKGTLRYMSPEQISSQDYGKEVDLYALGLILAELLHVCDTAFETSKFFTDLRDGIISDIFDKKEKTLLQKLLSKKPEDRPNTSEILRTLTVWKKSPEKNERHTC
Chain of UniProt Q04759 (whole entry, looked up): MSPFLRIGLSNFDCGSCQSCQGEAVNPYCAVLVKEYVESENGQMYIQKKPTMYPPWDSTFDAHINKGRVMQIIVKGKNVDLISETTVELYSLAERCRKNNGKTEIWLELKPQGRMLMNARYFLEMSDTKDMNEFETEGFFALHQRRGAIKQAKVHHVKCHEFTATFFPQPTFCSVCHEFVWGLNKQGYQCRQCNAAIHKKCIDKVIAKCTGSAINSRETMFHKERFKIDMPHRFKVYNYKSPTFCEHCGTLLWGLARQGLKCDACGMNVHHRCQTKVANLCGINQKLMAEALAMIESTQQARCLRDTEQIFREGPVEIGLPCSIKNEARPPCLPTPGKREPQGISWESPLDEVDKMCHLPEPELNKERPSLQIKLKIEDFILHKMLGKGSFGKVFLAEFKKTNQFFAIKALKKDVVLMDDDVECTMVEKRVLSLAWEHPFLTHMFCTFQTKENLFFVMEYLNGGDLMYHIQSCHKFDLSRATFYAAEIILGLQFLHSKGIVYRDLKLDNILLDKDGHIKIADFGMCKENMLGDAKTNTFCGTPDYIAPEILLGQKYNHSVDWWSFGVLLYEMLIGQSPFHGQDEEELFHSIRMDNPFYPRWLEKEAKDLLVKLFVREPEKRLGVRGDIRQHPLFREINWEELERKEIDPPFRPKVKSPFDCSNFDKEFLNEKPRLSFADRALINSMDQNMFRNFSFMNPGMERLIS

Set 1 — technique: aptamer microarray, sandwich; molecule type: DNA with 2'F-ANA; medium: in vitro; tested at: 200 nM; added: Cy3 exosite-II aptamer, 400 nM; direction: higher = stronger binding; oligonucleotide: GGTTGGTGTGGTTGG
Target: Prothrombin, mature alpha-thrombin (F2, Homo sapiens, UniProt P00734)
Setting: whole 15-mer aptamer, many near background
Modification | mean fluorescence intensity
2'F-ANA at 1 3 6 8 10 11 15 | 69.8 a.u.
2'F-ANA at 3 4 6 7 8 9 11 13 | 453 a.u.
2'F-ANA at 1 2 3 4 6 7 8 10 12 14 15 | 56 a.u.
2'F-ANA at 4 5 10 11 12 13 15 | 49.1 a.u.
2'F-ANA at 1 2 3 6 8 9 10 11 13 14 15 | 70.7 a.u.
2'F-ANA at 2 7 8 11 12 | 727 a.u.
2'F-ANA at 1 3 6 7 8 13 | 255 a.u.
2'F-ANA at 1 5 8 13 14 | 43.2 a.u.

Set 2 — effect on: enzyme activity; action: inhibitor; tested at: 0.5 µM; reference: control
Compound: COc1cc2ncnc(Nc3ccc(OCc4ccccc4)cc3)c2cc1OC
target | remaining activity [%]
MAP3K20 (Homo sapiens, UniProt Q9NYL2) | 96.2
IGF1R (Homo sapiens, UniProt P08069) | 102
PAK4 (Homo sapiens, UniProt O96013) | 103
SGK2 (Homo sapiens, UniProt Q9HBY8) | 100
EPHA2 (Homo sapiens, UniProt P29317) | 106
PRKCQ (Homo sapiens, UniProt Q04759) | 102
SIK2 (Homo sapiens, UniProt Q9H0K1) | 73.7
CAMK1 (Homo sapiens, UniProt Q14012) | 98.4
Cyclin-dependent kinase 2, with cyclin E (CDK2, Homo sapiens, UniProt P24941) | 96.7
PIM1 (Homo sapiens, UniProt P11309) | 102
JAK1 (Homo sapiens, UniProt P23458) | 101
CSNK1E (Homo sapiens, UniProt P49674) | 98.4
MELK (Homo sapiens, UniProt Q14680) | 102

Set 3 — effect on: cell-free assay; technique: competition with immobilised ligand; tested at: 1 µM
Structure (SMILES): CCC(=O)N[C@@H]1CC[C@H](C(=O)N(C)c2ccc(-c3nc4ccccc4o3)cc2)C1
target | remaining binding
MAPKAPK5 (Homo sapiens, UniProt Q8IW41) | 100%
EIF2AK2 (Homo sapiens, UniProt P19525) | 100%
EGFR (Homo sapiens, UniProt P00533, L858R) | 100%
RET (Homo sapiens, UniProt P07949, M918T) | 100%
DMPK (Homo sapiens, UniProt Q09013) | 100%
BTK (Homo sapiens, UniProt Q06187) | 87%

Single results of other studies
Compound | test system | quantity | value
CCOC(=O)[C@@H]1CSCC(=O)N[C@@H](CC)C(=O)N(C)[C@@H](C)C(=O)N[C@@H](CC(C)C)C(=O)N2CCC[C@H]2C(=O)N(CC(C)C)CC(=O)N[C@@H](CC(C)C)C(=O)N(C)[C@@H](C)C(=O)N[C@@H](CC(C)C)C(=O)N1C | hydrocarbon/water | logD | 1.8
